Measurements pooled from the literature.
Parts stem from different laboratories: compare values within a part only.

Series 1 — method: protein binding microarray; form: double-stranded DNA, one strand shown; medium: in vitro; concentration: not given; reference: not given; reading: higher = stronger binding
Target: Histone acetyltransferase KAT6A, winged helix 1, GST fusion (KAT6A, Homo sapiens, UniProt Q92794, residues 1-85)
Setting: 8-mer, flanks averaged, mean of 2 arrays, mostly near background
Residues (chain): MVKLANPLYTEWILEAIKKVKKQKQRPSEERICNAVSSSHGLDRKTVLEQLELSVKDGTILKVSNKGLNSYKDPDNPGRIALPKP
The E-score of `ACATAGAG` is reported as -0.172.
For `GCCAAGGA`, the E-score was -0.219.
For `ATTGACCA`, the E-score was -0.283.
`GGGCTATA` gave an E-score of -0.0671.
`AAATGAGG` gave an E-score of -0.265.
`ATATATAA` has an E-score of -0.157.
`AAGACTTG` gave an E-score of -0.0175.
For `ATAGTAAA`, the E-score was 0.0279.
For `TAGAACTA`, the E-score was -0.145.
With `GATGAGCC` the E-score was -0.0634.
`AGAACGTA` gave an E-score of -0.0374.
With `AAGTGGTA` the E-score was -0.243.
`ATCTGCAT` gave an E-score of -0.209.
For `GCGAATGA`, the E-score was 0.122.
With `GTATGTGA` the E-score was 0.0198.
With `ATGAGATA` the E-score was -0.113.
The E-score of `GAACTGTC` is reported as -0.00863.
`CAGGGCAG` has an E-score of -0.192.

Series 2 — method: aptamer microarray, sandwich; form: DNA with 2'F-ANA; medium: in vitro; concentration: 200 nM; added: Cy3 exosite-II aptamer, 400 nM; reading: higher = stronger binding; sequence: GGTTGGTGTGGTTGG
Target: Prothrombin, mature alpha-thrombin (F2, Homo sapiens, UniProt P00734)
Setting: whole 15-mer aptamer, many near background
`2'F-ANA at 1 4 5 9 10 11 12 13 15`: “mean fluorescence intensity” 97.8 a.u.
For `2'F-ANA at 2 6 7 9 11 12 13`, “mean fluorescence intensity” read 413 a.u.
`2'F-ANA at 2 3 5 6 8 12 14 15`: “mean fluorescence intensity” 59.8 a.u.
For `2'F-ANA at 3 4 5 6 7`, “mean fluorescence intensity” read 94.1 a.u.
`2'F-ANA at 1 3 4 6 8 10 13 14` — result for “mean fluorescence intensity”: 47.4 a.u.
Under “mean fluorescence intensity”, `2'F-ANA at 2 4 6 9 10 12 14` is recorded as 62.9 a.u.
For `2'F-ANA at 1 2 4 5 8 9 11 12`, “mean fluorescence intensity” read 105 a.u.
For `2'F-ANA at 2 4 5 6 12 14`, “mean fluorescence intensity” read 49.6 a.u.
For `2'F-ANA at 2 3 6 8 11 13 14 15`, “mean fluorescence intensity” read 317 a.u.
Under “mean fluorescence intensity”, `2'F-ANA at 1 3 4 5 6 9 10 12 13 14 15` is recorded as 66 a.u.
For `2'F-ANA at 2 3 6 8 10 11 13 14 15`, “mean fluorescence intensity” read 202 a.u.
`2'F-ANA at 2 4 5 6 10 14`: “mean fluorescence intensity” 53.8 a.u.
`2'F-ANA at 2 3 5 6 7 11 13 14 15`: “mean fluorescence intensity” 51.4 a.u.
Under “mean fluorescence intensity”, `2'F-ANA at 1 2 3 4 5 7 12 14` is recorded as 44 a.u.
Under “mean fluorescence intensity”, `2'F-ANA at 2 3 4 5 7 9 10 11 12 13 15` is recorded as 52.4 a.u.
For `2'F-ANA at 1 2 3 6 7 8 9 10 14`, “mean fluorescence intensity” read 89.4 a.u.
`2'F-ANA at 2 3 4 7 13` — result for “mean fluorescence intensity”: 582 a.u.
`2'F-ANA at 1 2 6 7 9 10 12 13 14`: “mean fluorescence intensity” 46.9 a.u.

Series 3 — method: protein-binding microarray; form: double-stranded DNA, one strand shown; medium: in vitro; concentration: not given; reading: higher = stronger binding
Target: Protein C-ets-1 (ETS1, Homo sapiens, UniProt P14921, residues 1-441, K379A, full length assumed)
Chain of UniProt P14921 (whole entry, unmodified, looked up): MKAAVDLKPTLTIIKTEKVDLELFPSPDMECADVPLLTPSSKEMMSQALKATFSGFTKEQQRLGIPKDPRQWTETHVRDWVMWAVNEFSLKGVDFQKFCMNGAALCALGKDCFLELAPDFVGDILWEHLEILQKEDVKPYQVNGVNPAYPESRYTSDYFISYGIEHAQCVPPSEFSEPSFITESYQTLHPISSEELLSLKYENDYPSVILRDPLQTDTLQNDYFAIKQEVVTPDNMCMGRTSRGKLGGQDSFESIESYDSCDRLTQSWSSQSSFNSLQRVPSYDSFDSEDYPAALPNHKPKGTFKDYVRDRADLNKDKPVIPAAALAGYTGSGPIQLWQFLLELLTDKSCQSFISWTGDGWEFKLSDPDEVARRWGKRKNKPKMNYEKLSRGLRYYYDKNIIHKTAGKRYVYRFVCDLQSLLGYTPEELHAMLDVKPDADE
Setting: k-mer, scored over probes, only values ≥0.25
`CCCGGTAC` gave an E-score of 0.384.
`CCCGACAA` has an E-score of 0.27.
The E-score of `TATCATGA` is reported as 0.296.
`ATACGGTC` gave an E-score of 0.263.
`ACCCCGGT` gave an E-score of 0.393.
The E-score of `CATTGTTC` is reported as 0.27.
For `CCATTTCC`, the E-score was 0.346.
`CGGTAAGA` gave an E-score of 0.293.
With `CGGTAGCC` the E-score was 0.286.
`GAACGTAA` gave an E-score of 0.277.
`ACCGGGAC` has an E-score of 0.474.
The E-score of `ACAATGCA` is reported as 0.257.
`ACAGGAAA` gave an E-score of 0.333.
For `ATCCGGCA`, the E-score was 0.27.
With `TAATTATA` the E-score was 0.297.
The E-score of `GCGGTAAC` is reported as 0.281.

Series 4 — method: protein-binding microarray; form: double-stranded DNA, one strand shown; medium: in vitro; concentration: 250 nM; setting: 60-bp whole probe; added: salmon DNA 0.4 mg/ml; reference: random background probes; reading: higher = stronger binding; constant ends, left off below: GCCTAGCAC … GTCTTGATTCGCTTGACGCTGCTG
Target: Interferon regulatory factor 5, full length, phosphomimetic (IRF5, Homo sapiens, UniProt Q13568-2, residues 1-514, K96S/S451D/S453D/S456D/S462D)
`TTAGAACTGAGAATGGATTAGTGCTAG` gave a log fluorescence of -0.0342 z-score.
With `TTAGATTTCGGGACTGTATTAGTGCTA` the log fluorescence was 2.81 z-score.
For `GACGGTATCCTACTCCTGACGTGCTAG`, the log fluorescence was -0.0674 z-score.
`GACGGTTTCGACTTTCGGGACGTGCTA` has a log fluorescence of 7.78 z-score.
The log fluorescence of `GACGGTATCGGTTTCTGGACGTGCTAG` is reported as 6.61 z-score.
`TTAATGTGTTCTTGGATTCGGTGCTAG` has a log fluorescence of 0.295 z-score.
`GACGCTTTCGACACTGGGGACGTGCTA` gave a log fluorescence of 5.82 z-score.
For `TCTGTTTTCGCTTTCTTTAAGTGCTAG`, the log fluorescence was 7.4 z-score.
The log fluorescence of `CTGCTTGAAACTCTTACCCCGTGCTAG` is reported as -0.19 z-score.
With `TCATCTCCCATTCTGAAACTGTGCTAG` the log fluorescence was 0.432 z-score.
`TCAGGTTTGAGTCTTCTACTGTGCTAG` gave a log fluorescence of -0.258 z-score.
`GACGGACTGGGTATCGTGACGTGCTAG` gave a log fluorescence of -0.225 z-score.
For `TCATTGTTGTTTTTTGGACTGTGCTAG`, the log fluorescence was 0.707 z-score.
The log fluorescence of `GACGGACTGCTTCTCCTGAAGTGCTAG` is reported as -0.638 z-score.
`TTAGGTTTTCTTTCCCTTTAGTGCTAG` gave a log fluorescence of 1.62 z-score.
For `TGTGGGCGTAGGCCCGGAGCGTGCTAG`, the log fluorescence was -0.901 z-score.
With `TTAGTTTTCGGGTTTCGATTAGTGCTA` the log fluorescence was 8.78 z-score.
With `CACGGTTTCGGTCTCGGGACGTGCTAG` the log fluorescence was 9.23 z-score.
For `TTAGATCTCAGTATCAATTAGTGCTAG`, the log fluorescence was 1.34 z-score.
For `TTAGATTTCAGTCTCTATTAGTGCTAG`, the log fluorescence was 2.21 z-score.
`CGCTTTCTTTAACTCATTTTGTGCTAG` gave a log fluorescence of 2.01 z-score.
The log fluorescence of `AATTGTCTCTGTCCCTGTTTGTGCTAG` is reported as 0.57 z-score.
`TTAGATACCGGGTATCGATTAGTGCTA` has a log fluorescence of 3.56 z-score.
`TTAGGTTTGGACTATCGGTTAGTGCTA` gave a log fluorescence of 5.13 z-score.
For `TCATTTATACCTTAGGTACTGTGCTAG`, the log fluorescence was 0.0357 z-score.

For quick reference, copied from above (series 4):
The log fluorescence of `GACGGTATCGGTTTCTGGACGTGCTAG` is reported as 6.61 z-score.
The log fluorescence of `CTGCTTGAAACTCTTACCCCGTGCTAG` is reported as -0.19 z-score.
`GACGGACTGGGTATCGTGACGTGCTAG` gave a log fluorescence of -0.225 z-score.
`CGCTTTCTTTAACTCATTTTGTGCTAG` gave a log fluorescence of 2.01 z-score.
